Measurements from different studies.
Every numbered part comes from another study and shows a few of its results, in no order. Positions count from the first letter of the parent shown.
UniProt Q15759, sequence (whole entry, looked up): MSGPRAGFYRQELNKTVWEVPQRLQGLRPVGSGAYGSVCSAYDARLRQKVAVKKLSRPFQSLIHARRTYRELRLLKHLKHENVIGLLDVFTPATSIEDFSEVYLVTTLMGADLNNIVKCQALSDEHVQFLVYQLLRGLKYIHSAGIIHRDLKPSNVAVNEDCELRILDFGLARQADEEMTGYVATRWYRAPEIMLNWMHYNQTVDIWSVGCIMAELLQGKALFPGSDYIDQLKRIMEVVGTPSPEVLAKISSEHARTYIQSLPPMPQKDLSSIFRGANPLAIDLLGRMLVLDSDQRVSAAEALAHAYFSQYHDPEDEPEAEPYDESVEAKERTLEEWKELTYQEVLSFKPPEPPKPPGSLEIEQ
UniProt Q16566, sequence (whole entry, looked up): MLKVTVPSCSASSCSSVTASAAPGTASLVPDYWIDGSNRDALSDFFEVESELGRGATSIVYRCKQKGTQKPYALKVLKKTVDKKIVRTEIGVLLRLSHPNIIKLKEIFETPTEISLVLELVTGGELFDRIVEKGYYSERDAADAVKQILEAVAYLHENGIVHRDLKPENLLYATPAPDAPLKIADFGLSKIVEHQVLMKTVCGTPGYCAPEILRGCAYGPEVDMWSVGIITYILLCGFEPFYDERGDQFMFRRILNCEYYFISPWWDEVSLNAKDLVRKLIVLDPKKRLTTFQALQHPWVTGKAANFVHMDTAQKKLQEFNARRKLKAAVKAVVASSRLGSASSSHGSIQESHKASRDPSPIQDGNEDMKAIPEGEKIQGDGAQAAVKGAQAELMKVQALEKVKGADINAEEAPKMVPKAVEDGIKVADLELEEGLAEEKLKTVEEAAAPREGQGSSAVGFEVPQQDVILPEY
UniProt Q9HAZ1, sequence (whole entry, looked up): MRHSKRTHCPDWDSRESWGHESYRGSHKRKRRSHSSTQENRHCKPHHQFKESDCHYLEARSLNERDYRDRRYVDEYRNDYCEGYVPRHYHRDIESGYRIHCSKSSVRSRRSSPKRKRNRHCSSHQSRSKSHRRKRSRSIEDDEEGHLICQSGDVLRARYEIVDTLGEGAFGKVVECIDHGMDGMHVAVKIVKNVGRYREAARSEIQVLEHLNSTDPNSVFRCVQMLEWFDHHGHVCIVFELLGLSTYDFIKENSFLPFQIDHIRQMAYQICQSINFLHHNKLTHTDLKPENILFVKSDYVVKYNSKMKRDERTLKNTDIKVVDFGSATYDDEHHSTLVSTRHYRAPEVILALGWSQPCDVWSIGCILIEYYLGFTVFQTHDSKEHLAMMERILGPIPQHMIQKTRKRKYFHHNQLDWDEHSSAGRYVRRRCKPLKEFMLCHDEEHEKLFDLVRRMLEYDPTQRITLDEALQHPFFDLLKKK
UniProt Q13237, sequence (whole entry, looked up): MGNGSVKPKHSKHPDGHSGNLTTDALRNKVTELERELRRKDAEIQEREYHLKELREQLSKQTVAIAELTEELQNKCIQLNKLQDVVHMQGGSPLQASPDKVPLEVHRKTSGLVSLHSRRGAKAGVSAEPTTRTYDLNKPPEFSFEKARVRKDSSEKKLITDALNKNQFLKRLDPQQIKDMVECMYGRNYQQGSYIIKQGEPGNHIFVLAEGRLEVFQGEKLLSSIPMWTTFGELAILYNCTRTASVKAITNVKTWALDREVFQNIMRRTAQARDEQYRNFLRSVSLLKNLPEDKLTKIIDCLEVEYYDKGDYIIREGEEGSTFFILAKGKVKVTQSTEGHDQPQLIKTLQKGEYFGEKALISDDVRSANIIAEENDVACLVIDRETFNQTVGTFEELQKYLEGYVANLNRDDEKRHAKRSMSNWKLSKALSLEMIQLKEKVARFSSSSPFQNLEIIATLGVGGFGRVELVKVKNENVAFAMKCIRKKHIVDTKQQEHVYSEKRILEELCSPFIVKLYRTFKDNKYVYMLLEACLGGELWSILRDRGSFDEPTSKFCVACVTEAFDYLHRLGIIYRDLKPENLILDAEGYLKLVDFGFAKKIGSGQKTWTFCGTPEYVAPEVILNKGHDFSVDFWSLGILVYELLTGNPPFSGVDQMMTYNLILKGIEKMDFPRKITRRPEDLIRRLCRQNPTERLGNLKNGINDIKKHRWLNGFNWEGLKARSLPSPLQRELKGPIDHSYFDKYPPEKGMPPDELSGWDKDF

Set 1 — target: inorganic phosphate, free oxyanion; technique: microfluidic competitive inhibition; medium: in vitro, cell-free expressed; concentration: not given; direction: lower = stronger binding; quantity: phosphate dissociation constant
Setting: derived from inhibition constants, unchanged parent 615000 nM
Parent: PafA, mature enzyme, eGFP fusion (Elizabethkingia meningoseptica, UniProt Q9KJX5); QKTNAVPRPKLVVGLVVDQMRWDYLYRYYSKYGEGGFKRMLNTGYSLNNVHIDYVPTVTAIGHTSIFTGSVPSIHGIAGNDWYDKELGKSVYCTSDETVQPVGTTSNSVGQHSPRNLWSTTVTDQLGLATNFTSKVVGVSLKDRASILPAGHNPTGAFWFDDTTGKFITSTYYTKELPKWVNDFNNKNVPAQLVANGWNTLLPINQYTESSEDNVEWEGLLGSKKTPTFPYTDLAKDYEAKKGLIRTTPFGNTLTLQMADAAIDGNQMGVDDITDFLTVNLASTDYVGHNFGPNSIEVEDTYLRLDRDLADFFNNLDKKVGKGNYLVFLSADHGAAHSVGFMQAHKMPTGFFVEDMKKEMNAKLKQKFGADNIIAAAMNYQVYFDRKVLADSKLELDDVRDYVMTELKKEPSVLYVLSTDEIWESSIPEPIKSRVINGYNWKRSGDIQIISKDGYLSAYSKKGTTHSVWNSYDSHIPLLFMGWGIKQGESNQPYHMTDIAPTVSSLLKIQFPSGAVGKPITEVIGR
K135V: 588 µM
P101G: 556 µM
Q487V: 631 µM
S283V: 687 µM
P493G: 593 µM
S106V: 688 µM
A282V: 793 µM
G88A: 537 µM

Set 2 — read-out: enzyme activity; mode: inhibitor; concentration: 0.5 µM; reference: control; quantity: remaining activity
Structure (SMILES): O=C1NC(=O)c2c1c1c3ccccc3n3c1c1c2c2ccccc2n1[C@H]1CC[C@@H]3O1
MAP2K1 (Homo sapiens, UniProt Q02750): 29.5%
MAPK1 (Homo sapiens, UniProt P28482): 88.7%
CAMK4 (Homo sapiens, UniProt Q16566): 98.7%
CLK4 (Homo sapiens, UniProt Q9HAZ1): 20.3%
MAPK11 (Homo sapiens, UniProt Q15759): 108%
PRKG2 (Homo sapiens, UniProt Q13237): 6.01%

Set 3 — read-out: ligand displacement; concentration: 10 µM; quantity: inhibition
Target: D(1B) dopamine receptor (DRD5, Homo sapiens, UniProt P21918)
Cc1c(N2CCNCC2)nc2ccc(Br)cc2c1C(=O)NC[C@H](CCC(=O)O)c1ccccc1Cl: 5.3%
Cc1noc([C@H]2C[C@@H](c3ccc(C(F)(F)F)cc3)CN(C(=O)N3CCS(=O)(=O)C3)C2)n1: 22.6%
COc1cccc(NC(=O)c2nc3scc(CN(C)Cc4ccccc4)c3c(=O)[nH]2)c1: 2.81%
CC(=O)N1CCC(c2ccc(C(=O)NC3=NCCN3)cc2C(F)(F)F)CC1: -9.82%
NC(=O)c1ccc2nc(-c3ccc(C4(N)CCC4)cc3)c(-c3ccccc3)n2n1: 23.4%
CN1CCN(C(=O)C(C)(C)c2ccc(C(=O)Nc3cn4cc(-c5cc(C(C)(C)C)cc(C(C)(C)C)c5)ccc4n3)cc2)CC1: 29.7%
O=S(=O)(NC1CCC(c2cc(F)ccc2F)(S(=O)(=O)c2ccc(Cl)cc2)CC1)C(F)(F)F (centres unmarked): 11.3%
CC1CCN(c2ccnc(NCc3cn(C)cn3)n2)CC1: 5.03%
CNC(=O)Nc1ccc2c(c1)CC[C@]21OC(=O)N(CC(=O)N(Cc2ccc(F)cc2)[C@@H](C)C(F)(F)F)C1=O: 21.1%
N#CC1(c2ccccn2)CCN(Cc2cc(C(=O)N3CCCC3)c(=O)n3ccccc23)CC1: -18.3%
COc1cc(-c2cn(C3CCc4c(F)cccc4N(CC(F)(F)F)C3=O)nn2)ccc1-n1cnc(C)c1 (centres unmarked): -8.33%
Nc1nc(NCc2ccccc2)nc(-c2ccccc2CO)n1: 43.9%
O=C(NS(=O)(=O)c1ccc(NCC2CCOCC2)c([N+](=O)[O-])c1)c1ccc(N2CCN(Cc3ccc(C(F)(F)F)cc3-c3ccc(Cl)cc3)CC2)cc1Oc1cnc2[nH]ccc2c1: 9.7%
C[C@@H](c1cccc(C#N)c1)n1cc(Cl)cc(C(N)=O)c1=N: 16.1%
Cc1cc(Nc2nccc(C)n2)cc(-c2cnc([C@@]3(O)CC[C@H](C(=O)O)C(C)(C)C3)s2)c1: 8.85%
CS(=O)(=O)N1CCCC(NC(=O)[C@H](CCC2CCCCC2)NC(=O)c2ccc(CNC(=O)c3cnc4ccccn34)cc2)C1 (some centres unmarked): 23.5%

Set 4 — target: CCNF, cyclin fold, Cln2 fusion (human); technique: yeast growth competition, sequencing; medium: yeast; setting: strong parent motif; reference: not given; direction: higher = stronger binding; quantity: normalised enrichment score; parent: viral docking peptide; TSVRRALFTGGSD
F8T: 0.195
F8H: 0.797
G10Q: 8.21
R4P: 3.86
A6N: 7.18
A6G: 6.49
D13A: 9
R4C: 7.13

A few entries again (set 4):
A6N: 7.18
A6G: 6.49
D13A: 9
R4C: 7.13
